Assay results gathered from unrelated publications.
Each numbered part is a random draw from the data of one study; scales do not carry over between parts.

Set 1
Target: Ras GTPase-activating protein-binding protein 1, full length (G3BP1, Homo sapiens, UniProt Q13283)
UniProt Q13283, sequence (whole entry, looked up): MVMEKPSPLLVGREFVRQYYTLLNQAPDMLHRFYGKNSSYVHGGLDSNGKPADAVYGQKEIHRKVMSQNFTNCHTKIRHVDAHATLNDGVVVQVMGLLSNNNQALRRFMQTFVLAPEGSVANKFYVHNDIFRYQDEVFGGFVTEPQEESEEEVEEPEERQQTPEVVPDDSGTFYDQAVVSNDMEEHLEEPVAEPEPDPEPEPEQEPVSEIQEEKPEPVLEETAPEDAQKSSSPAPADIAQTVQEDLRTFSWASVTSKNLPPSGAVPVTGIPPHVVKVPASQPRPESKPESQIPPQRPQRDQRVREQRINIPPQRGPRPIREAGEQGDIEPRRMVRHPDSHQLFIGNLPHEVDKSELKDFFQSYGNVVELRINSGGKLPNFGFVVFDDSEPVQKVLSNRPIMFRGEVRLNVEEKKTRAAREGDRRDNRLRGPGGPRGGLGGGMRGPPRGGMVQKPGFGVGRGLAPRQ
Technique: RNA Bind-n-Seq
Molecule type: RNA
Sample: in vitro
Tested at: 200 nM
Setting: whole 134-nt RNA, ends assumed
Added: 150 mM LiCl
Relative to: input library
Reading: higher = stronger binding
Each molecule: 7-deaza-guanosine replaces G
The log2 enrichment of `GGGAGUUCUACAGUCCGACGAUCUCCUGUGCUACACAUCGUAUGUACCGAAUCGGGCCCCCCGGGCCCCCCGGCCCCCCGGGGAAAGUAUUAUGUUACGCCGUUCGGAUCUGCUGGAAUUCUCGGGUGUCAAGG` is reported as -0.115.
With `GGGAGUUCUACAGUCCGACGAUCAAGUCCUGUGCUACACAUCGUAUGUACCGAAUCGGGGAGGGGAAAAAGGGGUGGGGAAAGUAUUAUGUUACGCCGUUCGGAUCUGCACUUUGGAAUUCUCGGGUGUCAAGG` the log2 enrichment was 0.561.
`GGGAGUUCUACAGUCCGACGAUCAAGUCCUGUGCUACACAUCGUAUGUACCGAAUCGGUUUUGGGUUUUGGGUUUUGGGAAAGUAUUAUGUUACGCCGUUCGGAUCUGCACUUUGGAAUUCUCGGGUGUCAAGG` gave a log2 enrichment of -0.413.
`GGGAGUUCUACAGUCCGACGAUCCAAGUCCUGUGCUACACAUCGUAUGUACCGAAUCGGAAAGGGGAAAGGGAAAGGGGAAAGUAUUAUGUUACGCCGUUCGGAUCUGCACUUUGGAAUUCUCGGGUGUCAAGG` has a log2 enrichment of -0.269.
`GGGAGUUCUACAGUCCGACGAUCGCAGGAAGUAAAAACAAAUGGAAAUGCUUCGGAUAUUGGCAGGGGUGGGGGUUGCUAAGGAAAGGGUGGGAUGGGAGUGGGUAAAGAGUUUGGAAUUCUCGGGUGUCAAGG` gave a log2 enrichment of 0.292.
`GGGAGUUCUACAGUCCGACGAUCUGUGCUACACAUCGUAUGUACCGAAUCGGGGAAAAAAAGGGGAAAAAAAGGGGAAAAAAAGGAAAGUAUUAUGUUACGCCGUUCGGAUCUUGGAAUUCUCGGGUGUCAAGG` has a log2 enrichment of 0.501.
`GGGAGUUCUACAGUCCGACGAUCAAGUCCUGUGCUACACAUCGUAUGUACCGAAUCGGGAAAAAGGAAAAAGGAAAAAGGAAAGUAUUAUGUUACGCCGUUCGGAUCUGCACUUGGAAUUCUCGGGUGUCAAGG` gave a log2 enrichment of -0.214.
`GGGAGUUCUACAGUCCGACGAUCGUCCUGUGCUACACAUCGUAUGUACCGAAUCGGGGUUUGGGGUUUUUGGGGUUUGGGGAAAGUAUUAUGUUACGCCGUUCGGAUCUGCACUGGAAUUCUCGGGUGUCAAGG` has a log2 enrichment of 0.197.

Set 2
Target: RING finger protein unkempt homolog, zinc fingers 1-6, GST-SBP tag (UNK, Homo sapiens, UniProt Q9C0B0, residues 30-357)
UniProt Q9C0B0, sequence (30-357, looked up): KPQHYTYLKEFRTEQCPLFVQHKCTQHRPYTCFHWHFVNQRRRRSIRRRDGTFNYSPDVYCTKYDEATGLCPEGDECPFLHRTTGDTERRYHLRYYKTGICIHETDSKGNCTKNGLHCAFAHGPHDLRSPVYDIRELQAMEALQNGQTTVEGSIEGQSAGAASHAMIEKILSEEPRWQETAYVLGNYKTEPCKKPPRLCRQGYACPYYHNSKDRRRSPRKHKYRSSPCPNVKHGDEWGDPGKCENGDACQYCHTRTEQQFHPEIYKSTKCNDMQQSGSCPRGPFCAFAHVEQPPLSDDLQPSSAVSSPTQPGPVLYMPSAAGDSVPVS
Technique: RNA Bind-n-Seq
Molecule type: RNA
Sample: in vitro
Tested at: not given
Setting: RNA with constant flanks, human and mouse sites, ends assumed
Relative to: input RNA pool
Reading: higher = stronger binding
`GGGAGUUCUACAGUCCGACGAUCAUCAUGGCUACAAACAGACCAGAUACACUGGAUCCUGCUUUGCUGCGCCCAGGAAGAUUAGAUAGAAAAAUACAUAUCGAUUUACCAAAUGAACAAGCAAGAUUAGAUAUAUUGAAAAUCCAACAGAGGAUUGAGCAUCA` gave a bound/input enrichment of 13.6 ratio.
`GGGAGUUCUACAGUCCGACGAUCAGUGCUGCAGCAGCUCCCAGUCCAGUGCUAGGAAACAUUCCCCCAGGAGAUGGCAUGCCAGUAGGUCCUGUACCACCAGGGUUCUUUCAGGCACUUGGAGGUGUCCCAGGAAGUCAGCCACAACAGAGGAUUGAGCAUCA` has a bound/input enrichment of 0.076 ratio.
With `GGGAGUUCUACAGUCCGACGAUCCCAGUUUGGGUGGAUGAAGAUGAUGAAGAUGAGGAAAUAGUUGACAUGUCGAACAAUCGGUUUCGGAAAGAUAUAAUGAAAAAUGCCAGUGAAAGUAAACUUUCAAAAGAUAAACUUCAACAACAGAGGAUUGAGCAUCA` the bound/input enrichment was 0.372 ratio.
For `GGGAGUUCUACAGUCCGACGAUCGCGGCGGCGGGGUCGCGGACAUGGCUUCUUGGAGCGCGCCUUCACCUAGCCUUGUAGAGUAUUUUGAGGGCCAGACCUCCUUCCAGUGUGGCUACUGCAAGAACAAGUUGGGCAGUCGCUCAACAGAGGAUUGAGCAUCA`, the bound/input enrichment was 0.355 ratio.
With `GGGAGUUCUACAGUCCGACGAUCAAUCGAGGAGCAACAAGACCCAACGGGCCAAAUACUGGAAAUAAAAUAUGCCAGUUCAAACUGGUCCUUCUAGGAGAGUCUGCUGUUGGCAAAUCAAGCCUGGUUCUUCGCUUUGUGAAACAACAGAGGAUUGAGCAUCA` the bound/input enrichment was 0.202 ratio.
For `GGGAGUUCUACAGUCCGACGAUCAUUUGGAAGAGUACCUGAGAUUGGUGAUAUUCUGGGCACUAAAUGAAGGUGUUUGUCGACAGUUUGACUCAUUCAGAGAUGGAUUUGAAUCGGUCUUCCCGCUCUGCCAUCUUCAGUACUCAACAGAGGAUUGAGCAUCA`, the bound/input enrichment was 0.0531 ratio.
`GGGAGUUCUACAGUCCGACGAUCCAGUUUUUGGAAGAAGUCAAAGUAAGCAGAGAGAUGGACAGGGAAACACUUAUAGAUGUGGCCAGAACAUCUCUUCGUACUAAAGUUCAUGCUGAACUUGCAGAUGUCUUAACAGAGGCUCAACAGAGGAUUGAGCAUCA` has a bound/input enrichment of 0.0793 ratio.
`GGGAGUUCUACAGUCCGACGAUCAAGGAUGACUUCUUAGGAGCUGCAGAAGGAAAACUGCAAUGCAAUCGUUUAAUGCCUAAUUCACAAAAAGACUGUCAUUGUUUAGGAGAUGUCUUAAUUGAAAAUACGAAAGAAUCUAAACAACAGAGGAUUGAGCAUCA` has a bound/input enrichment of 1.34 ratio.

Set 3
Target: Sal-like protein 4, full length isoform B (SALL4, Homo sapiens, UniProt Q9UJQ4-2, residues 1-616)
Technique: universal PBM
Molecule type: double-stranded DNA, one strand shown
Sample: in vitro
Tested at: not given
Setting: 8-mer, flanks averaged, mean of replicates
Reading: higher = stronger binding
Residues (chain): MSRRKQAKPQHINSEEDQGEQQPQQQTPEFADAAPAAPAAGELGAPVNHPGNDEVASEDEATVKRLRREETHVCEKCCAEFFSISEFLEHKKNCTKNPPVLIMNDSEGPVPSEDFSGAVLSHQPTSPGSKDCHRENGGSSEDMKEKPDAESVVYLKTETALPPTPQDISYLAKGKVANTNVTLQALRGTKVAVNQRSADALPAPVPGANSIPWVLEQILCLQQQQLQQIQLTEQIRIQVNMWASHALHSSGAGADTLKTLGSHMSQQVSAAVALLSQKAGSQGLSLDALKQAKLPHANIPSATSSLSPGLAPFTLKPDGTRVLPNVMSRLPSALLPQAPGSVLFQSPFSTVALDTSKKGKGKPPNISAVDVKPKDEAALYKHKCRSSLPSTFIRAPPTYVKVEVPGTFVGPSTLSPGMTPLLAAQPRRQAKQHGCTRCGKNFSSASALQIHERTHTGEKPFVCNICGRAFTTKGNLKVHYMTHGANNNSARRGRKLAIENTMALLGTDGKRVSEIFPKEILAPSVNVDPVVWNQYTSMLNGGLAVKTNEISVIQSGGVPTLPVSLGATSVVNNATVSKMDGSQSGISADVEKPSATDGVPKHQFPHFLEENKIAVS
`AGTGGAGG` gave an E-score of -0.146.
`TATCTAAA` has an E-score of 0.245.
With `CAAGAACG` the E-score was -0.0331.
For `AAACAATT`, the E-score was 0.265.
`CGTTTCAC` has an E-score of -0.0788.
`CTGCAGTA` has an E-score of -0.0242.
With `ACGTTTTA` the E-score was 0.233.
`ACGGTTTC` has an E-score of -0.173.
`GGAGATGA` has an E-score of -0.00521.
`CTGCTTAC` gave an E-score of -0.0376.
For `CGGGGGAG`, the E-score was -0.202.
With `GTCTCGTA` the E-score was 0.0454.
For `AGCCATTA`, the E-score was 0.185.

Set 4
Molecule: PhoQ, residues 284 288 289 292 302 303 GASLAW
Technique: Sort-seq
Refers to: YFP reporter
Sample: E. coli
Setting: PhoQ-PhoP variant library
Added: 10 µM Mg2+
Relative to: high Mg2+ state
Reading: higher = stronger signaling
PhoP, residues 12 14 15 18 19 VHTVL (Escherichia coli, UniProt P23836) — fold induction: 5.95.
The fold induction was 4.48 (PhoP, residues 12 14 15 18 19 ICWRQ (Escherichia coli, UniProt P23836)).
The fold induction was 9.6 (PhoP, residues 12 14 15 18 19 TQCLL (Escherichia coli, UniProt P23836)).

Excerpt of the above (set 4):
The fold induction was 9.6 (PhoP, residues 12 14 15 18 19 TQCLL (Escherichia coli, UniProt P23836)).
The fold induction was 4.48 (PhoP, residues 12 14 15 18 19 ICWRQ (Escherichia coli, UniProt P23836)).
PhoP, residues 12 14 15 18 19 VHTVL (Escherichia coli, UniProt P23836) — fold induction: 5.95.
